Results of several laboratories.
Compare with care: the assays were run in different laboratories. Values joined by “and” are separate records of one study, mostly repeats; a detail may differ. ± marks the error that the study gave.
MT-CYB/UQCRFS1: MT-CYB/UQCRFS1 (Homo sapiens, UniProt P00156+P47985)
KEAP1 Kelch domain: Kelch-like ECH-associated protein 1, Kelch domain (KEAP1, Homo sapiens, UniProt Q14145)
Dehaloperoxidase B ferric: Dehaloperoxidase B, ferric (Amphitrite ornata, UniProt Q9NAV7)

| Compound | target or system | test | system | conditions | how to read | measurement | result |
| --- | --- | --- | --- | --- | --- | --- | --- |
| Nc1ncnc2c1ncn2[C@@H]1O[C@H](CO[P@](=O)(O)O[P@](=O)(O)O[P@@](=O)(O)S)[C@@H](O)[C@H]1O | GUK1 (Homo sapiens, UniProt Q16774) | binding, isothermal titration calorimetry |  | molar ratio 3.279, fitted curve |  | ΔH | -0.221 kcal/mol |
| O=C(O)c1ccc(Nc2ncc3c(n2)-c2ccc(Cl)cc2C(c2c(F)cccc2F)=NC3)cc1 | MLK1(h) | kinase activity |  | 1 µM |  | remaining activity | 81% |
| O=C(Nc1cccc2c(=O)cc(-c3nnn[nH]3)oc12)c1ccc(OCCCCc2ccccc2)cc1 | LRRC8A/LRRC8C (Homo sapiens, UniProt Q8IWT6+Q8TDW0) | ion current, inhibitor, whole-cell patch clamp | HCT116 LRRC8 knockout, transfected | +100 mV, LRRC8A/LRRC8C heteromer |  | Hill coefficient | 0.74 |
| CCCC(C)N1CCC(N(Cc2cccc(CNC(=O)CCl)c2)C(=O)Nc2cccc(C(F)(F)F)c2)CC1 (centres unmarked) | DCN1-like protein 1 (Homo sapiens, UniProt Q96GG9) | covalent binder, LC-TOF mass spectrometry |  | 60 µM, overnight, 4 °C, with: DCN1-like protein 1 30 µM |  | covalent adduct formation | 0% |
| Cc1cccc(N2CC(C(=O)O)CC2=O)c1 (centres unmarked) | YTH domain-containing family protein 2 (YTHDF2, Homo sapiens, UniProt Q9Y5A9) | binding, affinity selection mass spectrometry |  |  | relative to: other proteins in batch | log fold enrichment | 0.0347 |
| OCCN(CCO)c1nc(N2CCCCC2)c2nc(N(CCO)CCO)nc(N3CCCCC3)c2n1 | Translocator protein (TSPO, Homo sapiens, UniProt P30536) | frontal affinity chromatography | platelet membrane affinity column | concentration not given, Miltenyi isolation kit |  | number of binding sites | 41 nmol |
| CC(C)(O)c1ccccc1CC[C@@H](SCC1(CC(=O)O)CC1)c1cccc(/C=C/c2ccc3ccc(Cl)cc3n2)c1 | Cysteinyl leukotriene receptor 1 (Mus musculus, UniProt Q99JA4) |  | female MC-Cysltr2 knockout mice | intraperitoneal, 30 mg/kg |  | BAL fluid eosinophils | decreased |
| CC[C@@H]1[C@H](F)C(=O)N[C@@H]1COc1nccc2cc(C(N)=O)c(OC)cc12 | Dual specificity protein kinase CLK2 (CLK2, Homo sapiens, UniProt P49760) | ATP-site probe binding, ActivX profiling | THP-1 cell lysate | 0.04 mM, Lys2 site |  | inhibition | 32.4% |
| NC(=O)NOCCCCCCCCCCCCCCCCCCCC[P+](c1ccccc1)(c1ccccc1)c1ccccc1.O=C([O-])C(F)(F)F | MT-CYB/UQCRFS1 | complex III-dependent respiration, Seahorse XF96 | HCT-116 | 0.3 µM, 24 h | relative to: control | oxygen consumption rate | 108% |
| CC[C@H](C)[C@H](NC(C)=O)C(=O)N[C@@H](CC(N)=O)C(=O)N[C@H](C(=O)N[C@@H](CCCNC(=N)N)C(=O)N[C@@H](CCCCN)C(=O)N[C@@H](CCCNC(=N)N)C(=O)N[C@@H](CC(N)=O)C(=O)N[C@H](C(=O)N[C@@H](CCC(=O)O)C(=O)N[C@@H](CO)C(=O)NCC(=O)N[C@@H](CCC(=O)O)C(=O)N[C@@H](CCC(=O)O)C(=O)N[C@@H](CCC(=O)O)C(=O)N[C@@H](CC(C)C)C(=O)N[C@@H](C)C(=O)N[C@@H](CO)C(=O)N[C@@H](CCCCN)C(=O)N[C@@H](CC(C)C)C(=O)N[C@@H](CC(=O)O)C(N)=O)C(C)C)C(C)C | KEAP1 Kelch domain | binding, ITC |  | pH 7, 298.15 K |  | ΔG | -9.2 ± 0.03 kcal/mol |
| CCC1(O)CCCN(C(=O)c2ccc(-c3ccc(F)c(NC(=O)CCl)c3)cc2)C1 (centres unmarked) | DNA dC->dU-editing enzyme APOBEC-3B, C-terminal domain (Homo sapiens, UniProt Q9UH17) | covalent adduct, intact protein MS |  | 3 h, 1-fold, 25 µM |  | unmodified protein | 60% and 37% |
| C=CC(=O)N1CCC[C@@H](n2nc(-c3ccc(Oc4ccccc4)cc3)c3c(N)ncnc32)C1 | Tyrosine-protein kinase ZAP-70 (ZAP70, Homo sapiens, UniProt P43403) |  |  | 1 µM |  | remaining activity | 356% |
| CCN(O)N=Nc1ccc(S(=O)(=O)Nc2nccs2)cc1 | α-glucosidase, rat intestine | enzyme activity |  | 20 µg/mL, with: 4-nitrophenyl α-D-glucopyranoside |  | inhibition | 12.5 ± 0.01% |
| O=C(COP(=O)(O)O)[C@@H](O)[C@H](O)[C@H](O)COP(=O)(O)O | Phosphoglycerate mutase 1 (Homo sapiens, UniProt P18669) | activator |  | 0.3125 mM, wild-type enzyme, unit not given | relative to no compound | enzyme activity | 2.33 and 2.07 and 2.13 |
| O=S(=O)(O)C1CCNCC1 | Sodium- and chloride-dependent taurine transporter (SLC6A6, Homo sapiens, UniProt P31641, G62A) | binding, microscale thermophoresis |  | 7.81 µM, room temperature, with: 50 nM labelled protein | higher = more binding | normalised MST signal | -0.0167 |
| CCOC(=O)n1ccn(C)c1=S | THP-1 | pyroptotic LDH release |  | 2 µM, 40 min, with: LPS then nigericin |  | inhibition | -5.6% |

| Compound | target or system | test | system | conditions | how to read | measurement | result |
| --- | --- | --- | --- | --- | --- | --- | --- |
| CCNC(=O)/C=C/c1cccc(Br)c1 | Sodium-dependent neutral amino acid transporter B(0)AT1 (SLC6A19, Homo sapiens, UniProt Q695T7) | inhibitor, L-[14C]leucine uptake | CHO-BC cells | 0.1 µM, 6 min, unit not given, with: GPNA 3 mM, JPH203 3 µM | relative to: uninhibited cells | remaining transport activity | 0.924 |
| CN(O)N=Nc1ccc(S(=O)(=O)Nc2nccs2)cc1 | α-glucosidase, rat intestine | enzyme activity |  | 300 µg/mL, with: 4-nitrophenyl α-D-glucopyranoside |  | inhibition | 60 ± 0.04% |
| Oc1ccc(/C=C/c2cc(O)cc(O)c2)cc1 | O-methyltransferase (Sorghum bicolor, UniProt A0A1B6PFV1) | biolayer interferometry |  | with: saturating sinefungin | relative to: apo | koff decrease | 2.22 fold |
| NC(=O)NO | MT-CYB/UQCRFS1 | complex III-dependent respiration, Seahorse XF96 | HCT-116 | 400 µM, 24 h | relative to: control | oxygen consumption rate | 86.8 ± 7.03% |
| Cc1cccc(N(O)N=Nc2ccc(S(=O)(=O)Nc3cc(C)on3)cc2)c1 | α-glucosidase, rat intestine | enzyme activity |  | 180 µg/mL, with: 4-nitrophenyl α-D-glucopyranoside |  | inhibition | 30 ± 2.09% |
| O=CNc1ccccc1C=O | Dehaloperoxidase B ferric | product, HPLC |  | 5 min, pH 7, 25 °C, enzyme 10 µM, with: indole and H2O2 500 µM each |  | product formed | 2.45 M |
| COc1ccc(C[C@H](N)C(=O)N[C@H]2[C@@H](O)[C@H](n3cnc4c(N(C)C)ncnc43)O[C@@H]2CO)cc1 | Protein transport protein Sec61 subunit alpha isoform 1 (Homo sapiens, UniProt P61619) | reporter gene, inhibitor, dual luciferase | HEK293 with SP-CD4-FLuc reporter | concentration not given |  | FLuc/RLuc ratio | 1.04 and 1.33 and 1.26 and 1.05 |
| NC(=O)N/N=C/c1ccc([N+](=O)[O-])o1 | THP-1 | pyroptotic LDH release |  | 2 µM, 40 min, with: LPS then nigericin |  | inhibition | -15.9% |
| O=P(O)(O)O[C@H]1O[C@H](CO)[C@@H](O)[C@H](O)[C@@H]1O | AncA-Alt ancestral enzyme | substrate, phosphomolybdate phosphate release |  | pH 6.5, 27 °C, reverse phosphorolysis, apparent Km, with: 25 mM mannose acceptor |  | Km | 13.2 ± 1.31 mM |
| Cc1ccc(C)n1-c1sccc1C(=O)O | Protein lin-28 homolog A (Mus musculus, UniProt Q8K3Y3) |  |  |  |  | Hill slope | -0.8 |
| Cc1ccc(C)c(N2C(=O)c3ccc(-c4nc(-c5ccc6[nH]nnc6c5)no4)cc3C2=O)c1 | Kelch-like ECH-associated protein 1, with NRF2 (Mus musculus, UniProt Q9Z2X8) | binding |  | concentration not given, biochemical |  | activity class | inactive |
| O=C1C=Nc2ccc(Br)cc21 | Dehaloperoxidase B ferric | product, HPLC |  | with: 5-bromoindole 500 µM, H2O2 1000 µM |  | share of total products | 47.1% |
| NC(=O)NOCCCCCCCCCC[P+](c1ccccc1)(c1ccccc1)c1ccccc1.O=C([O-])C(F)(F)F | MT-CYB/UQCRFS1 | complex III-dependent respiration, Seahorse XF96 | HCT-116 | 12.5 µM, 24 h | relative to: control | oxygen consumption rate | 74.1 ± 7.58% |
| Nc1ncnc2c1ncn2[C@@H]1O[C@H](COP(=O)(O)CP(=O)(O)OP(=O)(O)O)[C@@H](O)[C@H]1O | P2X purinoceptor 1 (P2RX1, Homo sapiens, UniProt P51575, R139A) | calcium influx |  | 10 nM | relative to: ionomycin response | calcium influx | 0.494% and 2.11% and 1.48% |
| O=c1nc(SCc2cc(F)cc(C(F)(F)F)c2)nc(SCc2csc3ccc(Cl)cc23)[nH]1 | DNA topoisomerase 2-alpha (TOP2A, Homo sapiens, UniProt P11388) | DNA cleavage |  | 3.9 µM |  | mean linear DNA | 0% |
| CSCC[C@H](NC(=O)[C@H](CCC(N)=O)NC(=O)[C@H](CC(C)C)NC(=O)[C@H](CO)NC(=O)[C@H](CCC(N)=O)NC(=O)[C@H](CC(C)C)NC(=O)[C@H](CCC(=O)O)NC(=O)CNC(=O)[C@@H](NC(=O)[C@H](CO)NC(=O)[C@@H]1CCCN1C(=O)[C@H](CC(=O)O)NC(=O)[C@@H](NC(=O)[C@H](CCC(=O)O)NC(=O)[C@H](CCCCN)NC(=O)[C@H](CO)NC(=O)[C@H](CO)NC(=O)[C@H](CC(C)C)NC(C)=O)C(C)C)[C@@H](C)O)C(=O)N1CCC[C@H]1C(=O)N[C@@H](CCC(=O)O)C(N)=O | KEAP1 Kelch domain | binding, ITC |  | pH 7, 298.15 K |  | ΔH | -18.27 ± 0.088 kcal/mol |

Some of these lines once more:
| Compound | target or system | test | system | conditions | how to read | measurement | result |
| --- | --- | --- | --- | --- | --- | --- | --- |
| NC(=O)NOCCCCCCCCCCCCCCCCCCCC[P+](c1ccccc1)(c1ccccc1)c1ccccc1.O=C([O-])C(F)(F)F | MT-CYB/UQCRFS1 | complex III-dependent respiration, Seahorse XF96 | HCT-116 | 0.3 µM, 24 h | relative to: control | oxygen consumption rate | 108% |
| CC[C@H](C)[C@H](NC(C)=O)C(=O)N[C@@H](CC(N)=O)C(=O)N[C@H](C(=O)N[C@@H](CCCNC(=N)N)C(=O)N[C@@H](CCCCN)C(=O)N[C@@H](CCCNC(=N)N)C(=O)N[C@@H](CC(N)=O)C(=O)N[C@H](C(=O)N[C@@H](CCC(=O)O)C(=O)N[C@@H](CO)C(=O)NCC(=O)N[C@@H](CCC(=O)O)C(=O)N[C@@H](CCC(=O)O)C(=O)N[C@@H](CCC(=O)O)C(=O)N[C@@H](CC(C)C)C(=O)N[C@@H](C)C(=O)N[C@@H](CO)C(=O)N[C@@H](CCCCN)C(=O)N[C@@H](CC(C)C)C(=O)N[C@@H](CC(=O)O)C(N)=O)C(C)C)C(C)C | KEAP1 Kelch domain | binding, ITC |  | pH 7, 298.15 K |  | ΔG | -9.2 ± 0.03 kcal/mol |
